{"data": "Assay results pooled from the literature", "note": "Numbered parts are unrelated; each lists some results of a single study. Changes are numbered by the printed parent chain."}
{"data": "Block 1", "target": "Sal-like protein 4, full length isoform B (SALL4, Homo sapiens, UniProt Q9UJQ4-2, residues 1-616)", "technique": "universal PBM", "molecule type": "double-stranded DNA, one strand shown", "matrix": "in vitro", "tested at": "not given", "setting": "8-mer, flanks averaged, mean of replicates", "direction": "higher = stronger binding", "Target sequence (chain)": "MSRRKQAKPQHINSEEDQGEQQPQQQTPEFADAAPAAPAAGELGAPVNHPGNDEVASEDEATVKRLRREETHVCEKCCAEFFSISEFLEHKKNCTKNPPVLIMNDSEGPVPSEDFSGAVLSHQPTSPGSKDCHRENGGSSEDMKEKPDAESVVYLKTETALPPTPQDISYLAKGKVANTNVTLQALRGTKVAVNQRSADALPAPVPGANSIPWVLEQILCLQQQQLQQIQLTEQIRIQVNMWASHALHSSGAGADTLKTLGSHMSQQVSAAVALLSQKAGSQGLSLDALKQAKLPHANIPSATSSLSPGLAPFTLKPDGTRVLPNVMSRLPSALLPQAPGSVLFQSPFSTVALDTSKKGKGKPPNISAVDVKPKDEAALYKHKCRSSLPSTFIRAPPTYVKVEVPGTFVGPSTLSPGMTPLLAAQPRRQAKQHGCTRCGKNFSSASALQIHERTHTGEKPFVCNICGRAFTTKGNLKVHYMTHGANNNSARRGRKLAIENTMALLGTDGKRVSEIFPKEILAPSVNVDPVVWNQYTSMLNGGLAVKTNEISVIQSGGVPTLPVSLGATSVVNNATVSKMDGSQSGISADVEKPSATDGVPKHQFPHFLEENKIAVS"}
{"Oligonucleotide": "CAGTGTAA", "E-score": 0.163}
{"Oligonucleotide": "AAGCGCCC", "E-score": -0.292}
{"Oligonucleotide": "ATGCGAGG", "E-score": -0.0211}
{"Oligonucleotide": "AACGTCAG", "E-score": -0.0299}
{"Oligonucleotide": "ATGCTAAT", "E-score": 0.209}
{"Oligonucleotide": "AAACATCT", "E-score": 0.201}
{"Oligonucleotide": "CACGCTCA", "E-score": -0.0845}
{"Oligonucleotide": "AGCTATGC", "E-score": 0.0163}
{"Oligonucleotide": "ATCAGTTG", "E-score": 0.0471}
{"Oligonucleotide": "ACTGCCCG", "E-score": -0.162}
{"Oligonucleotide": "CCCACAGG", "E-score": -0.271}
{"Oligonucleotide": "CGAGCTGC", "E-score": -0.212}
{"Oligonucleotide": "GCATTCAA", "E-score": 0.111}
{"Oligonucleotide": "AACTTTGT", "E-score": 0.263}
{"Oligonucleotide": "AGCCCTGC", "E-score": -0.253}
{"Oligonucleotide": "GGACTCTA", "E-score": -0.0614}
{"Oligonucleotide": "AGCAGGTC", "E-score": -0.175}
{"Oligonucleotide": "CCGGATGA", "E-score": -0.233}
{"Oligonucleotide": "ATCTCGTC", "E-score": -0.178}
{"Oligonucleotide": "AGTACATG", "E-score": 0.0357}
{"Oligonucleotide": "CATTTGTC", "E-score": 0.205}
{"Oligonucleotide": "CCTAGTCA", "E-score": -0.0457}
{"Oligonucleotide": "CAGGATAA", "E-score": 0.097}
{"Oligonucleotide": "AACAAGAT", "E-score": 0.169}
{"Oligonucleotide": "TAGCTGAA", "E-score": 0.085}
{"data": "Block 2", "target": "Interferon regulatory factor 3, full length, phosphomimetic (IRF3, Homo sapiens, UniProt Q14653, residues 1-427, S386D/S396D/S398D/S402D/T404D/S405D)", "technique": "protein-binding microarray", "molecule type": "double-stranded DNA, one strand shown", "matrix": "in vitro", "tested at": "2540 nM top", "setting": "60-bp whole probe", "with": "salmon DNA 0.4 mg/ml", "reference": "random background probes", "direction": "higher = stronger binding", "constant ends, left off below": "GCCTAGCAC … GTCTTGATTCGCTTGACGCTGCTG", "sequence of UniProt Q14653 (whole entry, unmodified, looked up)": "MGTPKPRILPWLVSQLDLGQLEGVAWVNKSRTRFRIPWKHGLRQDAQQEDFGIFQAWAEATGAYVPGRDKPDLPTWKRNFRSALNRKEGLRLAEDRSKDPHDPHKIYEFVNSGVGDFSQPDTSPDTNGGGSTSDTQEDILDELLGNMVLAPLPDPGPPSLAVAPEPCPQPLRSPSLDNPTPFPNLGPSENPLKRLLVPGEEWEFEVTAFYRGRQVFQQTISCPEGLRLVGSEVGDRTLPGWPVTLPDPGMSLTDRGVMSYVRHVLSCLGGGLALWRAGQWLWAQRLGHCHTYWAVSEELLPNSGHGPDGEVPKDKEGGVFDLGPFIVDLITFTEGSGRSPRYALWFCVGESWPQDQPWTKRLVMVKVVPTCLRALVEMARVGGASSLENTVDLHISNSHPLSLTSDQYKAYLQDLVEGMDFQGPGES"}
{"Oligonucleotide": "TCATATATCTGTGTTATACTGTGCTAG", "fitted relative affinity": "0.503 z-score"}
{"Oligonucleotide": "TTACCTTTTCACTTTACACAGTGCTAG", "fitted relative affinity": "7.53 z-score"}
{"Oligonucleotide": "GTCGAACTGGGGACTGGAGACGTGCTA", "fitted relative affinity": "-0.341 z-score"}
{"Oligonucleotide": "TCACTTATGATATATATAACTGTGCTA", "fitted relative affinity": "0.624 z-score"}
{"Oligonucleotide": "GACGAACTGGACTATCGGGACGTGCTA", "fitted relative affinity": "-0.239 z-score"}
{"Oligonucleotide": "TCAGCTTTCCCGTCCAGACTGTGCTAG", "fitted relative affinity": "1.2 z-score"}
{"Oligonucleotide": "TTAGGTACCGGACTGGGTTAGTGCTAG", "fitted relative affinity": "1.06 z-score"}
{"Oligonucleotide": "TTAGGACTGCTTATCCTTGAGTGCTAG", "fitted relative affinity": "-0.359 z-score"}
{"Oligonucleotide": "GACGGTGTCGACTATCGGGACGTGCTA", "fitted relative affinity": "0.749 z-score"}
{"Oligonucleotide": "TCAGGTGTTCTTTTCTGACTGTGCTAG", "fitted relative affinity": "1.14 z-score"}
{"Oligonucleotide": "CCATCTCTCAAAAGTCACCCTGTGCTA", "fitted relative affinity": "2.23 z-score"}
{"Oligonucleotide": "GAAGATTTCGGGACTGGAGACGTGCTA", "fitted relative affinity": "1.13 z-score"}
{"Oligonucleotide": "TCATGGCTGACTTTGGAACTGTGCTAG", "fitted relative affinity": "-0.88 z-score"}
{"Oligonucleotide": "TTAGGTTTCCTTATCCTTTGGTGCTAG", "fitted relative affinity": "8.13 z-score"}
{"Oligonucleotide": "TTAGAACTGAGTTTCGATAAGTGCTAG", "fitted relative affinity": "1.92 z-score"}
{"Oligonucleotide": "TCAGTTTTCTCCATGGAACTGTGCTAG", "fitted relative affinity": "1.58 z-score"}
{"data": "Block 3", "target": "RING finger protein unkempt homolog, zinc fingers 1-6, GST-SBP tag (UNK, Homo sapiens, UniProt Q9C0B0, residues 30-357)", "technique": "RNA Bind-n-Seq", "molecule type": "RNA", "matrix": "in vitro", "tested at": "not given", "setting": "RNA with constant flanks, human and mouse sites, ends assumed", "reference": "input RNA pool", "direction": "higher = stronger binding", "constant ends, left off below": "GGGAGUUCUACAGUCCGACGAUC … CAACAGAGGAUUGAGCAUCA", "Construct (chain)": "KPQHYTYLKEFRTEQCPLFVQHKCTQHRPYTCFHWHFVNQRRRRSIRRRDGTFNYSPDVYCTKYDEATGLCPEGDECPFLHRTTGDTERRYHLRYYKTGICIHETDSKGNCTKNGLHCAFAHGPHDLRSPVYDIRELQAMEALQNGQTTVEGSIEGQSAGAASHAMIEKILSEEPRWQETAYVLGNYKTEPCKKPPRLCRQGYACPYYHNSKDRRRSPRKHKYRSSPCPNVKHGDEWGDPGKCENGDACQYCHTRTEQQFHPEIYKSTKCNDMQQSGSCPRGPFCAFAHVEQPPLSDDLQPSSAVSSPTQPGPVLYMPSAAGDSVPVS"}
{"Oligonucleotide": "CUUAUCAAUCCAGAUGAACUGAGGGACAUCUGUUGGUCUAUGUAUAACUUUUAAAAUUGGUAUAGUAUCUACAGAGUGUAUAAUUUAAACUAACCACAAAGCUUUACAUCUUCAUUUUGA", "bound/input enrichment [ratio]": 0.192}
{"Oligonucleotide": "UUCUAUAACACUGGUUGAGAAAGUUCAGAUGAUCGCUGUAAUCCUAGGAUCCCUGUUCUUAAUAGCGAGUGUGACUUGGCUCCUCUGGUCAGCCUUCAGCCCCUAUGCAGUGUGGCAGAG", "bound/input enrichment [ratio]": 0.319}
{"Oligonucleotide": "CUGACCAGAGUCUCUGAAGACCCCAUCCAACGCUCCAAUGGCCAGCAACAACACCGCCAGCAUAGCACAAGCCAGGAAGCUGGUAGAACAGCUGAAGAUGGAAGCCAACAUCGACAGGAU", "bound/input enrichment [ratio]": 0.0792}
{"Oligonucleotide": "UCAGUUAAGUUGUCAGAAAACAUGAAGGCUUCAUCCUUUAAAAAACUACAGAAGUUUUAUAUAGACCCAUAUAAGCUGCUGCCACUGCAGAGGUUUUUACCUCGACCUCCAGGUGAGAAA", "bound/input enrichment [ratio]": 0.268}
{"Oligonucleotide": "UUCCUAAUAGAUACUAGAUUGUAUUGAAUUCUGUUUUAAUUAUUCUCUAGGUAAGUAUGUUUUAGGAUUAAAUACCUUUUACAGAUACUGAAAGUGCCUCCUUUUGUGGUGUAAAAAACA", "bound/input enrichment [ratio]": 1.46}
{"Oligonucleotide": "AGUGAUGGUGAAAUGCCAAAAUUUGAUGGUGCUGGUUAUGAUAAGGAUCUGGUGGAAGCCCUUGAAAGAGACAUUGUAUCCAGGAAUCCUAGCAUUCAUUGGGAUGACAUAGCAGAUCUG", "bound/input enrichment [ratio]": 0.12}
{"Oligonucleotide": "ACUGUCCAGGAGGUUCACCCAGGAGAACCUCCAUUCGACCUAGAGCUUUUCUACGUUAAGUAUAGAAAUUUUUCCUAUUUACAUUGUAAAUGGGCCACAAUGGAAGAACUGGAAAAGGAU", "bound/input enrichment [ratio]": 0.549}
{"Oligonucleotide": "GUUACAAGACCAAUAUUUGGGAUACUGGGCACAAUCCAUCUGGUGGCAGGUAAUUAUCUUGUUGUCAUCACCAAAAAGAUGAAAGUAGGUGAAUGUUUUAAUCAUGCGGUCUGGAGAGCC", "bound/input enrichment [ratio]": 0.724}
{"data": "Block 4", "target": "ABI1, truncated, D143A, DHFR fusion (Arabidopsis thaliana)", "technique": "DHFR PCA, deep sequencing", "matrix": "yeast", "setting": "methotrexate growth selection, single substitutions", "with": "(+)-ABA 1.4 µM", "reference": "wild-type fitted maximum", "direction": "higher = stronger binding", "starting sequence": "PYL1, truncated, DHFR fusion (Arabidopsis thaliana); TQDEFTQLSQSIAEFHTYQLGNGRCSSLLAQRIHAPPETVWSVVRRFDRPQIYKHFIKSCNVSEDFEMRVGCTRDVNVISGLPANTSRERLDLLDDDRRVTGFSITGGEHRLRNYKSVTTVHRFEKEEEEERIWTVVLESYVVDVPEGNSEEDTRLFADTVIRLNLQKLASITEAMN; partner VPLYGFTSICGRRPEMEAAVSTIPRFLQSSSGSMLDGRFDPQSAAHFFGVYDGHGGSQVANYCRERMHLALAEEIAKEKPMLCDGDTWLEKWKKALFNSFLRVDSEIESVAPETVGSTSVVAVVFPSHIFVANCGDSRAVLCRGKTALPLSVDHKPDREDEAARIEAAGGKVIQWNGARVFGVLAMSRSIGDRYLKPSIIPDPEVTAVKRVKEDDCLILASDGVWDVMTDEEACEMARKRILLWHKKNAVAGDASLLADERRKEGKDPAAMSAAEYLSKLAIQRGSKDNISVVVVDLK"}
{"Change": "E4S", "relative binding score [%]": 39.8}
{"Change": "P83F", "relative binding score [%]": -14.8}
{"Change": "L8C", "relative binding score [%]": 33}
{"Change": "S117Y", "relative binding score [%]": -12.9}
{"Change": "P36I", "relative binding score [%]": 4.67}
{"Change": "G23A", "relative binding score [%]": 19.4}
{"Change": "S59W", "relative binding score [%]": 4.48}
{"Change": "T135N", "relative binding score [%]": -3.26}
{"Change": "V40G", "relative binding score [%]": 0.402}
{"Change": "D97A", "relative binding score [%]": 62.3}
{"Change": "E131K", "relative binding score [%]": 72.2}
{"Change": "E89R", "relative binding score [%]": 6.19}
{"Change": "Q7P", "relative binding score [%]": 31.2}
{"Change": "E38R", "relative binding score [%]": 9.74}
{"Change": "F5H", "relative binding score [%]": 44.8}
{"Change": "I162L", "relative binding score [%]": 11.7}
{"note": "For quick reference, copied from above (block 4):"}
{"Change": "L8C", "relative binding score [%]": 33}
{"Change": "G23A", "relative binding score [%]": 19.4}
{"Change": "E131K", "relative binding score [%]": 72.2}
{"Change": "I162L", "relative binding score [%]": 11.7}
